Results of several laboratories.
Compare with care: the assays were run in different laboratories. ± marks the error that the study gave.
lasR: Transcriptional activator protein LasR (lasR, Pseudomonas aeruginosa, UniProt P25084)
Chain of UniProt P25084 (whole entry, looked up): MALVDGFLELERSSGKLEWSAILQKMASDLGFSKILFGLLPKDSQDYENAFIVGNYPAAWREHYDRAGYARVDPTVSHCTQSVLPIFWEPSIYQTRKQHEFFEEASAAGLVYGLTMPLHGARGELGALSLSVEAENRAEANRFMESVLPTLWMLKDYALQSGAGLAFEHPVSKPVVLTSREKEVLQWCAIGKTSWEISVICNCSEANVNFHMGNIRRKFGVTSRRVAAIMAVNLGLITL
APP: Amyloid-beta precursor protein (APP, Homo sapiens, UniProt P05067)
Chain of UniProt D0VWV4 (whole entry, looked up): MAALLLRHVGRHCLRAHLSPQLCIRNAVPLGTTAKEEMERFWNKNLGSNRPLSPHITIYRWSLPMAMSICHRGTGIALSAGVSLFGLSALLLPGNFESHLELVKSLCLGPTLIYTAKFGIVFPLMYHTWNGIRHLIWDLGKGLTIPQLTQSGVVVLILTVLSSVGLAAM
Chain of UniProt Q86U44 (whole entry, looked up): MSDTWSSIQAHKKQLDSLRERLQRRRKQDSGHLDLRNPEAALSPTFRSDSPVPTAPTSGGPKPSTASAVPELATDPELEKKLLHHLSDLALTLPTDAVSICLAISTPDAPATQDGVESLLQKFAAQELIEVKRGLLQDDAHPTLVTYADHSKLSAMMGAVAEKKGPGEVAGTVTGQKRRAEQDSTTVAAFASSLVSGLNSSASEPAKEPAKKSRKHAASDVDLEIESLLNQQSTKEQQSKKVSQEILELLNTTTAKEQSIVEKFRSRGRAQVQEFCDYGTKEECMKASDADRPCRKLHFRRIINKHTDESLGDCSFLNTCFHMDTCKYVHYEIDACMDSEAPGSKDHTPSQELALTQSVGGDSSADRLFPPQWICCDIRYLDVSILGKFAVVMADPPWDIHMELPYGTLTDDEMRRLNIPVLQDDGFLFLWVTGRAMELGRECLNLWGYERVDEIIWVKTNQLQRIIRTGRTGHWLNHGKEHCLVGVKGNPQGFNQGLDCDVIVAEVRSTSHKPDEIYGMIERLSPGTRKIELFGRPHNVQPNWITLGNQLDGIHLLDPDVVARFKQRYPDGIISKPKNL
Chain of UniProt A5GZW8 (whole entry, looked up): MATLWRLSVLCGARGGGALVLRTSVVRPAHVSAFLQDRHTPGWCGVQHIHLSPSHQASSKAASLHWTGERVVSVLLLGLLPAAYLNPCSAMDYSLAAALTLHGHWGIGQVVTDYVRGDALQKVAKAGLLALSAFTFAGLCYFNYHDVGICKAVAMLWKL
Chain of UniProt Q007T0 (whole entry, looked up): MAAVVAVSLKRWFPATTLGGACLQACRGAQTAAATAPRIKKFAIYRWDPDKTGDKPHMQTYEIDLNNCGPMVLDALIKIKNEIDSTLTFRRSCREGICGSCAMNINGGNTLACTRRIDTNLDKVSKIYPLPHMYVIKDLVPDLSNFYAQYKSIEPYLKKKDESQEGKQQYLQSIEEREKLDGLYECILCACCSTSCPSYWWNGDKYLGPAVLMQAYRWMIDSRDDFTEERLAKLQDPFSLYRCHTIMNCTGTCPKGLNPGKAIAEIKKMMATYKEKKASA
Chain of UniProt Q0QF01 (whole entry, looked up): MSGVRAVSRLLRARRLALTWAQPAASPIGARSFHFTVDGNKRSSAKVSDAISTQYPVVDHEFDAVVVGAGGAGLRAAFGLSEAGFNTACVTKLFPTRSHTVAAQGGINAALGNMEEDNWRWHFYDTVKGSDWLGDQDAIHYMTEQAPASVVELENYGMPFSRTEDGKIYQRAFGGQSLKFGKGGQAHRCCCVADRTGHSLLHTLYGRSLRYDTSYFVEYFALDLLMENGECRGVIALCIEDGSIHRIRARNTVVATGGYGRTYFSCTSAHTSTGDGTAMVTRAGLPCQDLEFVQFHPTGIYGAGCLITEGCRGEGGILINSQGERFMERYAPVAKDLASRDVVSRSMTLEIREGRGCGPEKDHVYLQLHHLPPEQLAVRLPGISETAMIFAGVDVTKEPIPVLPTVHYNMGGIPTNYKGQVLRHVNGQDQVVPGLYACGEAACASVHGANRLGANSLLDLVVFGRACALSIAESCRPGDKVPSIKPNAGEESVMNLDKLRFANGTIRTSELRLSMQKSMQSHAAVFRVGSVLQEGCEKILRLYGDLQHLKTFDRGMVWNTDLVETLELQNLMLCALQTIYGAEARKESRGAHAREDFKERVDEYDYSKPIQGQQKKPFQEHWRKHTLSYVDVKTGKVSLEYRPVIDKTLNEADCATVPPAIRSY
Chain of UniProt P51955 (whole entry, looked up): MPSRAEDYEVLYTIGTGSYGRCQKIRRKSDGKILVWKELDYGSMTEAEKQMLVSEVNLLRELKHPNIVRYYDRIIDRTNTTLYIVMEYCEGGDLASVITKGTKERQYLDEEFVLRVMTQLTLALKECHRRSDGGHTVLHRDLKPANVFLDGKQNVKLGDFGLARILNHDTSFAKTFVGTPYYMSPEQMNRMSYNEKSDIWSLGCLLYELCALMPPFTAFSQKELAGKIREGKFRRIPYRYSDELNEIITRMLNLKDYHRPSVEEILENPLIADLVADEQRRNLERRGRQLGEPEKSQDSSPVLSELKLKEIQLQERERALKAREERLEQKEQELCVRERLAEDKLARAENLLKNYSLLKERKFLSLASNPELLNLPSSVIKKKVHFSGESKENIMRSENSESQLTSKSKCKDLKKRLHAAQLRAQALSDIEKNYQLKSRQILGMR
Chain of UniProt O00411 (whole entry, looked up): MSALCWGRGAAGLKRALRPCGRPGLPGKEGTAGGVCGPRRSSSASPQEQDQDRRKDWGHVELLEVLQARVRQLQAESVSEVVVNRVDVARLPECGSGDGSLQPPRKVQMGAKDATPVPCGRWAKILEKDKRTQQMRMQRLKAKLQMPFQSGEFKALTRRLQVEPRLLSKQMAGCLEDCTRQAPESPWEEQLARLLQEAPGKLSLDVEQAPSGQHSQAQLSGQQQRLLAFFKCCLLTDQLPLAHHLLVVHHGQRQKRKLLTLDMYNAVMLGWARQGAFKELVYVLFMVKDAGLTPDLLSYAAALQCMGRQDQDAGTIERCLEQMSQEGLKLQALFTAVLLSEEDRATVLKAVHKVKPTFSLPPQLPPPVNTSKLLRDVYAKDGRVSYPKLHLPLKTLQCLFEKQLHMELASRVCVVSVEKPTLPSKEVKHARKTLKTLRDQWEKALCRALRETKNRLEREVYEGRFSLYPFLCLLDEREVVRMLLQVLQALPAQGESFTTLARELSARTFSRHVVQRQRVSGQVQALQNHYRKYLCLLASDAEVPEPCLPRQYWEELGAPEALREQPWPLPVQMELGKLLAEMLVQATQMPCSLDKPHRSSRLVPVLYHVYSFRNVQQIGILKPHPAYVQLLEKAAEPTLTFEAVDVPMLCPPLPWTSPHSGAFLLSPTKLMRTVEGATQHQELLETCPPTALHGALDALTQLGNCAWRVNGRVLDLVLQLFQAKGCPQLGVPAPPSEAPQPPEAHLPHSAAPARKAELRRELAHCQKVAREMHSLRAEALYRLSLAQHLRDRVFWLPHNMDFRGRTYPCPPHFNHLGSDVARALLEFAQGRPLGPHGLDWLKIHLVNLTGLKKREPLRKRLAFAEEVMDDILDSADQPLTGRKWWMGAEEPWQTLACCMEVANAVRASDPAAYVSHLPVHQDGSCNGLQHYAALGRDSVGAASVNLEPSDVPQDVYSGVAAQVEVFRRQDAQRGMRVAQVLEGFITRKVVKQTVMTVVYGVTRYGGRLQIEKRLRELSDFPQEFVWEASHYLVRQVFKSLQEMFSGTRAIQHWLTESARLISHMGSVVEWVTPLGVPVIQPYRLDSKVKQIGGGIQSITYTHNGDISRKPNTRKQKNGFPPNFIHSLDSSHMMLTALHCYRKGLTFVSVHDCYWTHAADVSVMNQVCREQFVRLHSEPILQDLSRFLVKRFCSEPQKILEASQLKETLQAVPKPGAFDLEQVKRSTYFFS
Chain of UniProt P17301 (whole entry, looked up): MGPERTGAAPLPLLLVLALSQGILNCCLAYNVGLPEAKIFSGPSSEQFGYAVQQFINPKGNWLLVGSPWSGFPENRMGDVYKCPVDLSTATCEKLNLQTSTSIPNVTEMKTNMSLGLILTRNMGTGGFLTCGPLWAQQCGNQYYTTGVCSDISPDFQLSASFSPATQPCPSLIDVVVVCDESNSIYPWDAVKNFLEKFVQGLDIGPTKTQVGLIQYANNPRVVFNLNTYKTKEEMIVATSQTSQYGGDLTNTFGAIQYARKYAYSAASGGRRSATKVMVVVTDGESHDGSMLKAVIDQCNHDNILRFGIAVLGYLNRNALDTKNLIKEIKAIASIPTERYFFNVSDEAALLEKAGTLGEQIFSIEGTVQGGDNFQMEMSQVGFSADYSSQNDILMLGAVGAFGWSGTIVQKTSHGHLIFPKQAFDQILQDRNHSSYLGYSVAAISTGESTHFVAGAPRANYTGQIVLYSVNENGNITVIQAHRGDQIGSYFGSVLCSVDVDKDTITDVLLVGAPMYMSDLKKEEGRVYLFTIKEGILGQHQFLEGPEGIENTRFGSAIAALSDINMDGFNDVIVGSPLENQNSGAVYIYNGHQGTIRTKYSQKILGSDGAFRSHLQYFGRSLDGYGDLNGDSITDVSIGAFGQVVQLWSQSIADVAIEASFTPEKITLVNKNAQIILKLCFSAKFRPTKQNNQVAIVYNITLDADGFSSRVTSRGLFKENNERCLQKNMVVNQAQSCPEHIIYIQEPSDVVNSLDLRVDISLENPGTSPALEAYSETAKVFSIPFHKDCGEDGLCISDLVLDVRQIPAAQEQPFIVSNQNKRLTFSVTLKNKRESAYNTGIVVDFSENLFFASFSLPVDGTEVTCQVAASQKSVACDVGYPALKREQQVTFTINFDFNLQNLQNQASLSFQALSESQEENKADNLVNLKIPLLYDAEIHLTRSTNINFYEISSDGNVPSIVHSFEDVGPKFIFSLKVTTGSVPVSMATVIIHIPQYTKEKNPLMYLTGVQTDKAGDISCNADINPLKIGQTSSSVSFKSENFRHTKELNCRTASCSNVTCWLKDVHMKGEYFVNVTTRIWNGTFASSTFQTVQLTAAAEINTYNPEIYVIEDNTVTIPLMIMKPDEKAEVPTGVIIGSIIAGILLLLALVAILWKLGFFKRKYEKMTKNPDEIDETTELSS

For `CN[C@](C)(C[18F])C(=O)O`, the tracer uptake was 1.5 %ID/g (MDA-MB-468 tumour model; host not given, tumour; 2 h, tumour-bearing).
The inhibition of `O=C(N[C@H]1CCOC1=O)c1cccc(-n2cc(C3CCCC3)nn2)c1` is reported as 20% (lasR; reporter gene, antagonist; 10 µM, together with: OdDHL 10 nM).
For `O=C(NC1CCN(c2ncnc3[nH]cnc23)CC1)c1cccc(NS(=O)(=O)c2ccc(C(F)(F)F)cc2)c1`, inhibition read “inactive” (N6-adenosine-methyltransferase catalytic subunit, with METTL14 (METTL3, Homo sapiens, UniProt Q86U44); enzyme activity, inhibitor; concentration not given).
For `N=C(N)NCCC[C@@H]1NC(=O)[C@H](CCCCNC(=O)CCOCCOCCOCCOCCNC(=O)CN2CCN(CC(=O)O)CCN(CC(=O)O)CCN(CC(=O)O)CC2)NC(=O)[C@@H](Cc2ccccc2)NC(=O)[C@H](CC(=O)O)NC(=O)CNC1=O` [indium-111 labelled], the tissue uptake was 1.07 ± 0.11 %ID/g (female athymic nude mice, kidney; intravenous, 3 µCi, 72 h, U-87 MG glioma xenograft).
The inhibition of `O=C(Nc1ccccc1Nc1ccccc1)c1cccnc1Cl` is reported as 50.1% (Succinate dehydrogenase complex (Sus scrofa, UniProt A5GZW8+D0VWV4+Q007T0+Q0QF01); enzyme activity, double-antibody sandwich ELISA; 2 µM).
`CN(C)CC1CCCCC1(O)c1cccc(O)c1` (stereo not shown) has a Papp B-to-A of 16.1 ± 0.7 ×10⁻⁶ cm/s (human P-glycoprotein; Caco-2 TC7 monolayer; 50 µM, 3 h, apical pH 6.8, basolateral pH 7.4, together with: cyclosporine A 10 µM).
`C[C@@H](O)[C@H](NC(=O)[C@H](CCCCN)NC(=O)COCCN)C(=O)N[C@@H](CCCNC(=N)N)C(=O)NC(C)(C)C(=O)N[C@@H](CCCNC(=N)N)C(=O)NC(C)(C)C(=O)N[C@H](C(=O)N[C@@H](CO)C(=O)N[C@@H](Cc1c[nH]cn1)C(=O)N[C@@H](Cc1ccc(O)cc1)C(=O)NCC(=O)O)[C@@H](C)O` gave an inhibition of 35% (Integrin alpha-2, with integrin beta-1 (Homo sapiens, UniProt P17301); K562 expressing integrin α2; up to 1×1 µM; maximal).
With `Clc1ccc(/N=N/c2ccc3nc(-c4ccccc4)c(I)c(-c4ccccc4)c3c2)cc1` the inhibition was 49.6% (APP; amyloid aggregation, inhibitor, fluorescence; 25 µM).
The inhibition of `CC(=O)NC(Cc1ccc(Br)c(Cl)c1)C(=O)N[C@@H](C)C(=O)N1CCC[C@H]1C(=O)N1CCC[C@H]1C(=O)N[C@@H](CCC(=O)O)C(=O)N[C@@H](Cc1c[nH]cn1)C(=O)N[C@@H](CO)C(=O)N[C@H](C(=O)N[C@@H](C)C(N)=O)[C@@H](C)OP(=O)(O)O` (stereo partly shown) is reported as 0.08% (Serine/threonine-protein kinase Nek2 (NEK2, Homo sapiens, UniProt P51955); enzyme activity, inhibitor; 10 µM).
Under “outward current amplitude”, `CC(C)C[C@H](NC(=O)[C@H](Cc1ccccc1)NC(=O)CNC(=O)CNC(=O)[C@@H](N)Cc1ccc(O)cc1)C(=O)O` is recorded as 199 ± 23 pA (rat locus coeruleus neurons; K+ current, agonist; concentration not given).
For `COc1cc(C(=O)NCCOCCOCCOCCNC(=O)c2ccc([18F])nc2)ccc1NC(=O)C1NC(CC(C)(C)C)C(C#N)(c2ccc(Cl)cc2F)C1c1cccc(Cl)c1F` (stereo not shown), the tracer uptake was 1.63 %ID/g (SJSA-1 tumour model; host not given, liver; 1 h, tumour-bearing).
With `NCC(CCC(N)C(=O)O)CC1OC(n2cnc3c(N)ncnc32)C(O)C1O` (stereo not shown) the inhibition was greater than 50% (DNA (cytosine-5)-methyltransferase 3B (DNMT3B, Homo sapiens, UniProt Q9UBC3); enzyme activity, inhibitor; 20 µM).
With `O=C(N[C@H]1CCOC1=O)c1cccc(-c2cn(-c3ccc4[nH]ccc4c3)nn2)c1` the inhibition was 7% (lasR; reporter gene, antagonist; 100 µM, together with: OdDHL 10 nM).
`Cc1ccc(-c2nc3ccc(/N=N/c4ccc([N+](=O)[O-])cc4)cc3c(-c3ccccc3)c2I)cc1` gave an inhibition of 74.4 ± 2% (APP; fibril formation, ThT fluorescence; PBS; concentration not given, 24 h, 37 °C, together with: Aβ42 25 µM).
`N#CC1(c2ccc3c(N)ncnn23)OC(COP(=O)(O)OP(=O)(O)OP(=O)(O)O)C(O)C1O` (stereo not shown): inhibition “no inhibition” (DNA-directed RNA polymerase, mitochondrial (POLRMT, Homo sapiens, UniProt O00411); enzyme activity; concentration not given).
`O=C(N[C@H]1CCOC1=O)c1ccc(-n2cc(-c3cc(F)cc(F)c3)nn2)cc1` has an inhibition of 1% (lasR; reporter gene, antagonist; 10 µM, together with: OdDHL 10 nM).
